Experimental data collected from several papers.
Parts stem from different laboratories: compare values within a part only.

Series 1
Target: RNA binding protein fox-1 homolog 2, RRM domain, GST-SBP tag (RBFOX2, Homo sapiens, UniProt O43251-10, residues 100-194)
Method: RNA Bind-n-Seq
Molecule type: RNA
Sample: in vitro
Concentration: 365 nM
Setting: natural RNA segment, single round, ends assumed
Reference: no-protein control
Direction: higher = stronger binding
Shared flanks, not repeated: GGGAGUUCUACAGUCCGACGAUC … UGGAAUUCUCGGGUGCCAA
Target sequence (chain): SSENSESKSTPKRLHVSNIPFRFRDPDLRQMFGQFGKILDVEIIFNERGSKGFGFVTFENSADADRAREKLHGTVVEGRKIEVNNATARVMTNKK
For `UGUCAGCCACCACACUGCCACCACCCUGCACACAGUCUGGGUCCCUCCGAGAGAAGCACGCCAACCUUAACAUCCCCUACAGCAUCUUGGUGCUUCACACACCAUUUAGG`, “RBNS enrichment (R)” read 9.55.
`CUAACAAAGUCUCCGAAACUAGUAGGACUACUACCACAUCUUUAUCCCCUGAGCUGAUCCGCUUCACAGCUUCCUCCUCGUCUGGGAUGGUGCCCAAAUUGCCAGCUGGC` — result for “RBNS enrichment (R)”: 0.177.
`CCUGUCACCCCCACUCCCGCCUCAGGGCCAGGCCCAGGCCUCACCACCUGACGCUGCAUGAGACAUUGACACCAGAAAGCCCUCUUGGGGGCACUGCUCCCUACCCCAGG` — result for “RBNS enrichment (R)”: 13.6.
`CAUACACACAUACAUGCUUUUGUGAUUUUUUUUAUUAGUGCUUUUACAUUUAGAAAUAUUUAUUUAUUCUAGCAGGGAAAAAACCCCACAUGCUUUAAAUGAUGUCACUU` — result for “RBNS enrichment (R)”: 0.843.
For `UUUCCCACUUUCUGGGUGGCUUUUUGGGUCCACCCAGCCAGGAUGCUGCAGGCCAAGCUGGGUGUGGUAUUUAGGGCAGCUCAGCAGGGGGAACUUGUCCCCAUGGUCAG`, “RBNS enrichment (R)” read 0.45.
`CGUUCUUUCCCCAAUCCCCAGGAAUGGACAAGAAGCCAACUUAGAAAGAAGGGUCUCACGUGGCUGGCCUGGCUCCUCCGUAGACCCCUGUUCUUUUCAACCUCUGCCCA` — result for “RBNS enrichment (R)”: 0.493.
For `ACAUGGAAGUAGACCGGCUCUGCUGAUUUGAAAUUUAGAUUUUUUUUUAAUUAUGUACUGGGGACAGGUUUUUGUCGCUUUACAUUGCUUCCUAGUUUACAGCAUGAUGC`, “RBNS enrichment (R)” read 1.18.
For `UCUUAAUCAGUAAAUGUUCACUGGCAUUUUGAAGGCAUGGCCCAAGAGAAGAGACACUAGCCAUAAAAUCUAGUUUCUAUUUAUCAACGUGUUGUGAAGAUGUACCUAAU`, “RBNS enrichment (R)” read 0.373.

Series 2
Target: Sal-like protein 4, full length isoform A (SALL4, Homo sapiens, UniProt Q9UJQ4, residues 1-1053)
UniProt Q9UJQ4, sequence (whole entry, looked up): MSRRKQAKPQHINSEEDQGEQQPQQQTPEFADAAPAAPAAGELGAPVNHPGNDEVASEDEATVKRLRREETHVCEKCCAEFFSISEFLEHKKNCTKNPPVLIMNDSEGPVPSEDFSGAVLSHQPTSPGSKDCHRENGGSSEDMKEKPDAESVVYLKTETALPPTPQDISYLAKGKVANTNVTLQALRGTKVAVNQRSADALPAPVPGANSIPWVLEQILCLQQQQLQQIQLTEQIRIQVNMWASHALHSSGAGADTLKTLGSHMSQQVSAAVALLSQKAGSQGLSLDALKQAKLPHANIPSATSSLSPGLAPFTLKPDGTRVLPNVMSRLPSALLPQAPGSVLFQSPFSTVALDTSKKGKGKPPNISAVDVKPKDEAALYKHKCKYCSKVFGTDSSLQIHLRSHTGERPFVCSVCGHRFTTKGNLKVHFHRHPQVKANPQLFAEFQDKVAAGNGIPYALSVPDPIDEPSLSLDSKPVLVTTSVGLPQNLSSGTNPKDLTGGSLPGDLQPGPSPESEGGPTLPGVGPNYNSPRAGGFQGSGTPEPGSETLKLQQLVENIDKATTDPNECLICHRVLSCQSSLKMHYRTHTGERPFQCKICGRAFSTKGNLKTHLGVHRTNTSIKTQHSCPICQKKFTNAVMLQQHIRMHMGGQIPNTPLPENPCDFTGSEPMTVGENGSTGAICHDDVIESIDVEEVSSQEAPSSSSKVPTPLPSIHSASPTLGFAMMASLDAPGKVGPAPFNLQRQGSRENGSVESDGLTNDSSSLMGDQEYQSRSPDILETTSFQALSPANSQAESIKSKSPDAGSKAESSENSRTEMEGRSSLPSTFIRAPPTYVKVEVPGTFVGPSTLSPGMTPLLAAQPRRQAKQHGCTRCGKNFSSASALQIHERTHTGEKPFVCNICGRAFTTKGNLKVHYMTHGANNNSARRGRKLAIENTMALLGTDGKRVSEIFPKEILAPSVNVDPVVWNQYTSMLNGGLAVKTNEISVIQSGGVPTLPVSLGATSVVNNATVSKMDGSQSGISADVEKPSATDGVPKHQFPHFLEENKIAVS
Method: universal PBM
Molecule type: double-stranded DNA, one strand shown
Sample: in vitro
Concentration: 600 nM
Setting: 8-mer, flanks averaged, mean of replicates
Direction: higher = stronger binding
For `AGGTCTGC`, the E-score was -0.131.
With `CATCGGCA` the E-score was -0.108.
For `CTGATTCC`, the E-score was -0.152.
For `CCAACACA`, the E-score was 0.122.
For `ATACGAGC`, the E-score was 0.176.
The E-score of `ACTTAAAG` is reported as 0.0866.
The E-score of `CGGCTATA` is reported as 0.0648.
With `ACTCCCTG` the E-score was -0.12.
With `CGGCTCTA` the E-score was -0.116.
`GAAGAGAC` gave an E-score of 0.0192.
The E-score of `ACCTTCAG` is reported as -0.0492.
`CAGGATCC` gave an E-score of -0.189.
`ATGGCAAA` gave an E-score of 0.184.
The E-score of `GCAGTAGC` is reported as -0.042.
For `AAGAAAGC`, the E-score was -0.145.
`CTCCTCAC` gave an E-score of -0.137.
For `CGGGTCTA`, the E-score was -0.157.
`AATGGGGG` has an E-score of -0.226.
The E-score of `ACTCGGAC` is reported as -0.0824.
`CCGTTCAC` gave an E-score of -0.227.

Series 3
Target: RING finger protein unkempt homolog, zinc fingers 1-6, SBP tag (UNK, Homo sapiens, UniProt Q9C0B0, residues 30-357)
UniProt Q9C0B0, sequence (30-357, looked up): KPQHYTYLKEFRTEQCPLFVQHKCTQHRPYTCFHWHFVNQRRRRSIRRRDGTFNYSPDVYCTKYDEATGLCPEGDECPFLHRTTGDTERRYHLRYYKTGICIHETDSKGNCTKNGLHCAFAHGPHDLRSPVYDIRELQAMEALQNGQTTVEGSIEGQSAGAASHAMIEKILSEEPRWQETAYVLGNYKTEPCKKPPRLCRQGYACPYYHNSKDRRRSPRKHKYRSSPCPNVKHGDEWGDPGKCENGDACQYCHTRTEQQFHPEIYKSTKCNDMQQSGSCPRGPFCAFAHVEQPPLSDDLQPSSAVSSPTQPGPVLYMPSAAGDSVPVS
Method: RNA Bind-n-Seq
Molecule type: RNA
Sample: in vitro
Concentration: 100 nM
Setting: RNA with constant flanks, vertebrate orthologous sites, ends assumed
Reference: input RNA pool
Direction: higher = stronger binding
Shared flanks, not repeated: GGGAGUUCUACAGUCCGACGAUC … CAACAGAGGAUUGAGCAUCA
The bound/input enrichment of `AAAUUUAUUUUAUGCCCUGGACUCCCUACCGCACUGAUACUUUAAUAGAAUAUGCUUCUUUAGAAGAUUUUCAAAACAGCCGCCAGACAACAACCUACAAACUUCCAAACCGAGUAGAUG` is reported as 1.57 ratio.
For `GUUUUGGUACAAAGCUCUAUGUACCAAUGCUUAUCAUCCUUACAUCAUACCAACUGUUCCGAAGUGUAGGAGUUUAAUAUUUUUCAAAAGUUUUACAUUGCUGUAUAUUCAAAGAUUUCU`, the bound/input enrichment was 0.59 ratio.
`CAUAAAAUACUGGAUGCAGUGUGUAAAUGAUCCAAGGCAGUGACGUCAGCGUUUCAUGUAGUGUCAAUUUUAAAUCAUCUGCUCUUAUUUAAAUUUCUAUAUUGGGUUGUUUCCUCUGUG` has a bound/input enrichment of 0.515 ratio.
The bound/input enrichment of `ACAGGAGCAGUACAGGCUGUUUGAUCUUUGAAGAAAUGAGCUUUGCUUUUUAUAUUUAAAUAGGAUACUUUUAUAUGAUGGGUGCUUUGAGUGUGAAUGCAGCAGUCUGUCCAUUUCAGA` is reported as 1.09 ratio.
For `UGGGUUACUCCUAUUAUUAUCAAGUAGCUGGAAUUGUGAAGGUCGGAGUAGUUAGAUCUUUAGCUUUUACUCCUUAUUUUUUUUUUGUAUUACUAUCCAUGUGUAUAAAUUAUUGAUCAU`, the bound/input enrichment was 2.63 ratio.
`ACACGUAUAUUGUGGCAUAUAGUCAACAUGGAAGUAGACCAGCUCUGCUGAUUUGAAAUUUAGAUUUUUUAAUUAUGUACUGGGGACAGGUUUUUGUCGCUUUACAUUGCUUCCUAGUUU` gave a bound/input enrichment of 3.18 ratio.
`UCCCAGCACUUUGAUAAAAAGCGUGGACUGGUUGCUUGUAUUUUCCUUAUUCUUUUUAAUUAGUUUUAUUAUGUACGCCACCAUCCGAACUGAGAGCAUCCGGUGGCUAAUUCCAGGACA` has a bound/input enrichment of 3.62 ratio.
`UCCAGUCUUACACUUAUGGUUGGCCUCAAAUCUAUUACAUUUAUGAUACUGUAGUAUAUCUAGUUGAGUUUAAUAUUUUUUUAUUAGCCUGUAAAUAAAGAUGGCAUCUUCUACAUUAAA` gave a bound/input enrichment of 0.928 ratio.

Series 4
Target: Histone acetyltransferase KAT6A, both winged helices, GST fusion (KAT6A, Homo sapiens, UniProt Q92794, residues 1-181)
Method: protein binding microarray
Molecule type: double-stranded DNA, one strand shown
Sample: in vitro
Concentration: not given
Setting: 8-mer, flanks averaged, mean of 2 arrays, mostly near background
Reference: not given
Direction: higher = stronger binding
Residues (chain): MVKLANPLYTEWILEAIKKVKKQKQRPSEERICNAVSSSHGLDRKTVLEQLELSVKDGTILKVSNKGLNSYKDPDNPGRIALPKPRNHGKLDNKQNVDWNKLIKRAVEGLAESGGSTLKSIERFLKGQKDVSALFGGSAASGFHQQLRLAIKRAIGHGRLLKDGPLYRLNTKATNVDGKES
With `GCGATGTA` the E-score was 0.105.
`GTTCCCCA` gave an E-score of -0.0579.
`GAGTTTTA` has an E-score of -0.033.
For `CAGGGATA`, the E-score was -0.23.
For `GTGGAAAA`, the E-score was 0.00551.
`CCTATAAG` gave an E-score of -0.2.
`CTTACAGC` gave an E-score of -0.019.
For `CCAGGGCA`, the E-score was -0.106.
With `CTTTTCGC` the E-score was 0.146.
The E-score of `CGGGGATA` is reported as 0.113.
The E-score of `TGGTAAAA` is reported as -0.115.
The E-score of `GAATACGA` is reported as -0.0618.
`GTGGCACA` gave an E-score of -0.148.
`AGAACGTG` has an E-score of 0.0622.
The E-score of `ACGAGACT` is reported as -0.131.
For `CCCTAGTA`, the E-score was 0.032.
With `CCTACTAC` the E-score was 0.0299.
The E-score of `AGCGTTCC` is reported as 0.0533.
`AATTGGGT` has an E-score of -0.16.
`ACTTCCCA` gave an E-score of -0.137.
The E-score of `GCGCGAAA` is reported as 0.231.
`CCCCACTC` has an E-score of -0.263.
The E-score of `CTGTGTAC` is reported as 0.101.
For `ACCCGGCA`, the E-score was 0.223.
`GCCGTGTA` has an E-score of 0.266.

Repeated from above (series 2):
`GAAGAGAC` gave an E-score of 0.0192.
The E-score of `ACCTTCAG` is reported as -0.0492.
`CAGGATCC` gave an E-score of -0.189.
`ATGGCAAA` gave an E-score of 0.184.
The E-score of `GCAGTAGC` is reported as -0.042.
For `AAGAAAGC`, the E-score was -0.145.
`CTCCTCAC` gave an E-score of -0.137.
For `CGGGTCTA`, the E-score was -0.157.
